# Assay results collected from several papers.
# Numbered parts are unrelated; each lists some results of a single study.

# Block 1 — technique: protein binding microarray; molecule type: double-stranded DNA, one strand shown; sample: in vitro; concentration: not given; relative to: not given; direction: higher = stronger binding
# Target: Histone acetyltransferase KAT6A, both winged helices, GST fusion (KAT6A, Homo sapiens, UniProt Q92794, residues 1-181)
# Setting: 8-mer, flanks averaged, mean of 2 arrays, mostly near background
# Residues (chain): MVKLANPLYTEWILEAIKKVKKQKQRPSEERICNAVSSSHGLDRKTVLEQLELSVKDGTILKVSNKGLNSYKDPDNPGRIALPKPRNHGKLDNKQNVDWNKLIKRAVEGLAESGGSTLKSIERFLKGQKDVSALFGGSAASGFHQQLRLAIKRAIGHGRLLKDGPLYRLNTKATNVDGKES
Strand,E-score
ACCTTTGG,-0.223
ATGAAGGG,-0.205
CTCCGGAA,0.0565
AGGCACGA,-0.0996
CCCAGACC,-0.124
GAGAAAGA,-0.18
TAGAGGGA,-0.253
GTCGAATA,-0.073
TCTCTGAA,-0.23
GAATACGC,0.161
CCGGGGAG,0.154
CCGGTTAC,0.241
AACGTAGT,-0.0895
GCTCAGGA,-0.015
CGTTACCC,0.102
AGGTGACC,-0.107
CTGCTGCA,-0.0929
CACGCTCG,0.0743
CGCCACCG,0.114
AGCGCGAC,0.277
AAGCGTGA,0.131
GTTTGGTA,-0.0493
CTACTATA,-0.0461
AGCTGCTC,-0.144
CGCTATAC,0.191

# Block 2 — technique: universal PBM; molecule type: double-stranded DNA, one strand shown; sample: in vitro; concentration: 600 nM; direction: higher = stronger binding
# Target: Sal-like protein 4, full length isoform A (SALL4, Homo sapiens, UniProt Q9UJQ4, residues 1-1053)
# Chain of UniProt Q9UJQ4 (whole entry, looked up): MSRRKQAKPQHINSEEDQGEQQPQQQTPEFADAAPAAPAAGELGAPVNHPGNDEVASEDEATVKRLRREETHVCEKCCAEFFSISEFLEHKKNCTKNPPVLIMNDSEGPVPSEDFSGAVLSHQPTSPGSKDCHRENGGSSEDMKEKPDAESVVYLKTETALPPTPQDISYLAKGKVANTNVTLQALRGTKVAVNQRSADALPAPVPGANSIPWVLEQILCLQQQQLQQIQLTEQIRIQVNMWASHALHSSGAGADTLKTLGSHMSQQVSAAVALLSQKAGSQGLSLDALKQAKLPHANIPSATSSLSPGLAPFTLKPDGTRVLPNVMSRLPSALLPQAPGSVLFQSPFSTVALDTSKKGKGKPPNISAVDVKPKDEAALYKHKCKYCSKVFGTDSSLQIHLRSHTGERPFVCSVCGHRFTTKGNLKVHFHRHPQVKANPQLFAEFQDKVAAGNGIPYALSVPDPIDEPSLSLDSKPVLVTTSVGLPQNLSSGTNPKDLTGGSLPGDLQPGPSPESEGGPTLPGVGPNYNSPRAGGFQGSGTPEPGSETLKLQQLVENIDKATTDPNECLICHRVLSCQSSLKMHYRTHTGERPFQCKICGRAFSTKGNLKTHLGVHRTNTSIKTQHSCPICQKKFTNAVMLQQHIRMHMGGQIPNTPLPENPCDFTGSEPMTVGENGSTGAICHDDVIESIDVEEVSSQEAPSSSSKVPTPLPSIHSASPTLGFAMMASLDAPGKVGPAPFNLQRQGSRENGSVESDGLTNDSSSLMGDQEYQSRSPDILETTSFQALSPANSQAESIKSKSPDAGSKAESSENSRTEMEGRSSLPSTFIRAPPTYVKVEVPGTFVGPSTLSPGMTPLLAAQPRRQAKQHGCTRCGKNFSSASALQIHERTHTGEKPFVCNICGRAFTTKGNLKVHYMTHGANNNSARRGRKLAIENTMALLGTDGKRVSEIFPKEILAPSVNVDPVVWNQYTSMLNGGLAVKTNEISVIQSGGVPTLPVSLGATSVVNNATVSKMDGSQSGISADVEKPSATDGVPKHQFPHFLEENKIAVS
# Setting: 8-mer, flanks averaged, mean of replicates
Strand,E-score
CAAGACTA,0.149
CGACAACG,-0.101
CGGCTAAG,-0.217
CGTACGCC,-0.176
CTTAGGAC,-0.132
GACGAACC,0.004
CGCGTCAC,-0.18
AGCTGAGG,-0.109
CTTATTCA,0.148
AAGGTCCG,-0.382
AATTAGGA,0.263
CCTCAATA,0.139
AGCTTGAC,-0.164
CATGGCGA,-0.171
CAGGAGAG,-0.0626
ACTGTTGA,0.125
CACACAGG,-0.0175
TCCTCAGA,0.0369
AAAACAAG,0.256
GACCGCCA,-0.364
AAAATCGG,0.0953
AGCTGTCA,0.046
CGGTCCAA,-0.318
CCTTGAGA,0.0252

# Block 3 — technique: RNA Bind-n-Seq; molecule type: RNA; sample: in vitro; concentration: 365 nM; relative to: no-protein control; direction: higher = stronger binding
# Target: RNA binding protein fox-1 homolog 2, RRM domain, GST-SBP tag (RBFOX2, Homo sapiens, UniProt O43251-10, residues 100-194)
# Setting: natural RNA segment, single round, ends assumed
Strand,RBNS enrichment (R)
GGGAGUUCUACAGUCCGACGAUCACGCUGUGUGUAUGACUGUGUGACUGUGUGGGAGCCUGGACUGACAGAUAGGCCAAGGGCUACUCUCUGGCAUCUCCAGGUGUUUUGUAGCAAACAGCCACUUAGUGCUUUGGAAUUCUCGGGUGCCAA,0.376
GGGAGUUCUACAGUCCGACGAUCACUGCUUUAUUACACACUGGUUUCAUUGUCAUUGCAAAAACUUACCCUGGUUGUGGGGGAGAGUUCUAGAUCUGUGCCAUGAUCCAUACACUGGCUAAUAGAGUACAUAAUGGAAUUCUCGGGUGCCAA,0.362
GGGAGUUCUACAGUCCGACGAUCUUUCUGUGACAAGUAUUUGUCGUAAAUUAAUUUUAAUUGUGUAUCAAGUGAAAAAGAAACACUGAGGUUUUAAGCUGCUGUAUAUAGCUUGUGAGAAACCUCUUUUCUUUUGGAAUUCUCGGGUGCCAA,0.401
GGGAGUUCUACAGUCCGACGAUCCCGAAUGAUGUUUGGUAAUUGUAGAAAAAGUAAAUGUGUCUCAGGAUCACUAUUACUGCUGUUGCCACUAGUGAUUCCUAGGAAAUACAUAAUUGACUUUUUCCAACAAAUGGAAUUCUCGGGUGCCAA,0.596
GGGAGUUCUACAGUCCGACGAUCUAAGAUUGUAAAUCCAUUUCCUGCUUGUGUUCUUAGUGGGCAUGAUUGUGAGUGUGUGUGGGGUGCUCACACGCGUGCCAGUCUUUUUGUACUGUAACUACCUCAUGGUUUGGAAUUCUCGGGUGCCAA,1.09
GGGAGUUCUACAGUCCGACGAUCCUCCAUAGGUGGGUUUGUAGGGUCUUGUGUUGCUUCUGGUCUCUCCAGGCUUGGCUGAGACGGACGGUAGACUUCCACCAUGUACCGAUCACAUCCCAGCUCUGCAUGGCUGGAAUUCUCGGGUGCCAA,1.67
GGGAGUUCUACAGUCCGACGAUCUGUUAAUUACAAAGAGAAAGAAUUGUCAUAGCAUCUUAUUUUGUUCCUAGUUUUAUAACAUUACCAUCCUUCGUUUUGAACUACAGAUGUUGUAGUGGGUUUUGGAGGAGUGGAAUUCUCGGGUGCCAA,0.948
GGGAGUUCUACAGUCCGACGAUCCGCCCCCCUCCUGCUGGUUCCCCAGCCCUUUUCCCUGGCCCUGGCUUGGAGAAUCUGUUUUCAAUCUCCACUGAUUGCCCCCUUGCUGGCCAGCCCAGGGGCCUUUACCAUGGAAUUCUCGGGUGCCAA,0.493

# Block 4 — technique: RNAcompete; molecule type: RNA; sample: in vitro; concentration: 20 nM; setting: 7-mer, probes averaged, single round; relative to: mean of 7-mers; direction: higher = stronger binding
# Target: PABPC1L2, full length, GST fusion (mouse, UniProt A0ABA7IW68)
# Residues (chain): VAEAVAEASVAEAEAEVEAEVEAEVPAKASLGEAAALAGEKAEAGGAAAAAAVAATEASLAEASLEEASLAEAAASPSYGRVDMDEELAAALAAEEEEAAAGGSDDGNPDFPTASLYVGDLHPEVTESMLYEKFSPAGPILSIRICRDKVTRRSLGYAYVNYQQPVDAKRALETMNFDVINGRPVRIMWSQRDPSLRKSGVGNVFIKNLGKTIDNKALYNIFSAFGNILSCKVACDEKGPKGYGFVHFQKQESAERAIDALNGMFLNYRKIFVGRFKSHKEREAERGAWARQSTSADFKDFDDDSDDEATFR
Strand,7-mer Z-score
ACGUGUG,-0.144
GGUCUUU,-0.267
CUUUAAA,0.591
GGUCGCG,-0.162
AUUCGCU,-0.311
ACCAGAA,0.309
UACACUU,-0.171
AUCUAAU,-0.197
CCGCCUG,-0.461
UCUAAAA,3
UGACAAG,0.0877
ACCAUAA,0.764
GAUUUUU,-0.242
GCCUGGU,-0.293
UACUUCG,-0.253
CAUCACG,-0.269
CUGCAGU,-0.311
CGACCCC,-0.248
AAACAUG,3.46
GUAAAGG,0.267
GGACCGA,0.236
UUACUUC,-0.36

# Block 5 — technique: protein-binding microarray; molecule type: double-stranded DNA, one strand shown; sample: in vitro; concentration: 250 nM; setting: 60-bp whole probe; added: salmon DNA 0.4 mg/ml; relative to: random background probes; direction: higher = stronger binding; all sequences stand within: GCCTAGCAC … GTCTTGATTCGCTTGACGCTGCTG
# Target: Interferon regulatory factor 5, full length, phosphomimetic (IRF5, Homo sapiens, UniProt Q13568-2, residues 1-514, K96S/S451D/S453D/S456D/S462D)
Strand,log fluorescence [z-score]
GACGGACTGGGGTTTCGGTACGTGCTA,4.41
TTAGATAGCGGGTTTCGATTAGTGCTA,6.54
GATGATATCGGGTATCGAGACGTGCTA,3.14
GACGGACTGGGACTTGGGACGTGCTAG,-0.875
GACGATATCCTACTGCTGACGTGCTAG,0.128
GACGAACTAAGACTGGAGACGTGCTAG,-0.38
GACGGGCTCGGACTGGGGACGTGCTAG,-0.662
TCACGTATCTTCATTGTACTGTGCTAG,0.511
ATCTTCATGAAATTTTAATAAGTGCTA,0.796
CACGGACTGCTTTTCCTGACGTGCTAG,-0.33
GACGTACTGAGTCTCGAGACGTGCTAG,-0.274
TTAGATATCCTTTTCCTTTAGTGCTAG,0.836
GACGGTATCCGGTATCGGGACGTGCTA,0.995
GAAGGTTTCGGTTTCGGGACGTGCTAG,10.4
GACGGACTGCTATTCCTGACGTGCTAG,-0.454
GACGGTATCGGTCTTGGGACGTGCTAG,5.08

# A few entries again (block 4):
Strand,7-mer Z-score
CAUCACG,-0.269
GCCUGGU,-0.293
CCGCCUG,-0.461
UACACUU,-0.171
AUCUAAU,-0.197
UCUAAAA,3
GGUCGCG,-0.162
UGACAAG,0.0877
AAACAUG,3.46
ACGUGUG,-0.144
GAUUUUU,-0.242
ACCAUAA,0.764
CUUUAAA,0.591
AUUCGCU,-0.311
CGACCCC,-0.248
CUGCAGU,-0.311
